Results pooled from the literature.
Compare with care: the assays were run in different laboratories.
UCHL1: Ubiquitin carboxyl-terminal hydrolase isozyme L1 (UCHL1, Homo sapiens, UniProt P09936)
Chain of UniProt P09936 (whole entry, looked up): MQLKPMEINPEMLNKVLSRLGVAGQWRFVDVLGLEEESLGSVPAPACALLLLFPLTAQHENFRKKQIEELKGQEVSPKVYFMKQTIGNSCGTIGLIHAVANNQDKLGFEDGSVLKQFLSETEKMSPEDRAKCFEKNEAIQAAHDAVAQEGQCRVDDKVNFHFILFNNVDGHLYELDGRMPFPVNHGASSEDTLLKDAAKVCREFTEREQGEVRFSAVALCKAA

CC(C)n1c(Nc2cccnc2)nc2cnc(Nc3ccc(N4CCN(C)CC4)cc3)nc21  adverse event incidence (refers to: Dizziness; healthy male subjects; oral, 100 mg, together with: itraconazole): 7.1%
Cc1c(C(=O)O)ccc2c3n(nc12)[C@@H]1[C@H](C3)N(CC2CC2)[C@@]2(C(=O)Nc3cc(Cl)ccc32)[C@H]1c1cccc(Cl)c1F  adverse event incidence (phase Ia trial, refers to: Vomiting; cancer patients; oral, dose not given, all patients all grades): 55.6%
Cc1ccc(Sc2ccccc2N2CCNCC2)c(C)c1  adverse event incidence (TEAE Vomiting; elderly men; oral, 10 mg single dose): 0%
CC(=O)O[C@H]1C(=O)[C@@]2(C)[C@H]([C@H](OC(=O)c3ccccc3)[C@]3(O)C[C@H](OC(=O)[C@H](O)[C@@H](NC(=O)c4ccccc4)c4ccccc4)C(C)=C1C3(C)C)[C@]1(OC(C)=O)CO[C@@H]1C[C@@H]2O  adverse event incidence (refers to: Hypophosphataemia; patients with advanced solid tumours; intravenous, dose not given, grade 3 and 4, possibly related to drug): 6%
C=CC(=O)Nc1ccc(C)cc1S(=O)(=O)N1CCOCC1  labelling (UCHL1; covalent, intact protein LC-MS; 12.5 µM): 10.8%
CC[C@H](C)CCCCC(=O)N[C@@H](CCN)C(=O)N[C@H](C(=O)N[C@@H](CCN)C(=O)N[C@H]1CCNC(=O)[C@H]([C@@H](C)O)NC(=O)[C@H](CCN)NC(=O)[C@H](CCN)NC(=O)[C@H](CC(C)C)NC(=O)[C@@H](Cc2ccccc2)NC(=O)[C@H](CCN)NC1=O)[C@@H](C)O  adverse event incidence (refers to: oral hypoaesthesia; long-term haemodialysis patients; IV, 0.75 mg/kg): 85.7%
N#CC(=Cc1ccc(C#N)cc1)C(=O)Nc1ccccc1Cl  labelling (UCHL1; covalent, intact protein LC-MS; 12.5 µM): 24.8%
CC[C@H](C)[C@H](NC(=O)[C@H](Cc1ccccc1)NC(=O)[C@H](CCC(=O)O)NC(=O)[C@H](CCCCNC(=O)COCCOCCNC(=O)COCCOCCNC(=O)CC[C@H](NC(=O)CCCCCCCCCCCCCCCCC(=O)O)C(=O)O)NC(=O)[C@H](C)NC(=O)[C@H](C)NC(=O)[C@H](CCC(N)=O)NC(=O)CNC(=O)[C@H](CCC(=O)O)NC(=O)[C@H](CC(C)C)NC(=O)[C@H](Cc1ccc(O)cc1)NC(=O)[C@H](CO)NC(=O)[C@H](CO)NC(=O)[C@@H](NC(=O)[C@H](CC(=O)O)NC(=O)[C@H](CO)NC(=O)[C@@H](NC(=O)[C@H](Cc1ccccc1)NC(=O)[C@@H](NC(=O)CNC(=O)[C@H](CCC(=O)O)NC(=O)C(C)(C)NC(=O)[C@@H](N)Cc1cnc[nH]1)[C@@H](C)O)[C@@H](C)O)C(C)C)C(=O)N[C@@H](C)C(=O)N[C@@H](Cc1c[nH]c2ccccc12)C(=O)N[C@@H](CC(C)C)C(=O)N[C@H](C(=O)N[C@@H](CCCNC(=N)N)C(=O)NCC(=O)N[C@@H](CCCNC(=N)N)C(=O)NCC(=O)O)C(C)C  adverse event incidence (refers to: Dizziness; type 2 diabetes patients; dose not given; reference: subjects): 20%
Cc1cc(Cl)c(OCCOCCN2CCN(C)CC2)c(Br)c1.O=C(O)C(=O)O  inhibition (Trypanosoma cruzi; reporter translation, Renilla luciferase mRNA translation; cell-free extract; 40 µM; reference: DMSO): -12.2%
O=C1CCc2ccc(OCCCCN3CCN(c4cccc(Cl)c4Cl)CC3)cc2N1  adverse event incidence (refers to: Rigidity; patients, CYP2D6 ultrarapid metabolizers; dose not given, long-acting oral or depot): 14%
FC(F)(F)c1ccc(CNc2ccc(Cc3c[nH]c4ncc(Cl)cc34)cn2)cn1  adverse event incidence (refers to: blood creatine phosphokinase increased; patients with advanced solid tumours; oral, dose not given, grade 3 and 4, possibly related to drug): 0%
NCCONC(=O)[C@@H]1CC[C@@H]2CN1C(=O)N2OS(=O)(=O)O  adverse event incidence (refers to: leading to dose reduction; healthy Chinese men; intravenous, 2 g, treatment-related): 0%

Excerpt of the above:
Cc1cc(Cl)c(OCCOCCN2CCN(C)CC2)c(Br)c1.O=C(O)C(=O)O  inhibition (Trypanosoma cruzi; reporter translation, Renilla luciferase mRNA translation; cell-free extract; 40 µM; reference: DMSO): -12.2%
